Published values pooled from the literature.
Lines come from different studies, so protocols differ. Numbers after ± are the reported error.

For `CO[C@@H]1[C@H](O)[C@@H](COP(=O)(O)OP(=O)([S-])OP(=O)(S)OC[C@H]2O[C@@H](n3cnc4c(=O)[nH]c(N)nc43)[C@H](O)[C@@H]2O)O[C@H]1n1c[n+](C)c2c(O)nc(N)nc21` (mixture of isomers), “cap-dependent translation efficiency” read 3.57 ± 0.95 (rabbit reticulocyte lysate; relative to: m7GpppG-capped mRNA).
For `C[n+]1cn(C2OC(COP(=O)(O)OP(=O)([O-])OP(=O)(O)OCC3OC(n4cnc5c(=O)[nH]c(N)nc54)C(O)C3O)C(O)C2O)c2nc(NCc3ccc(Cl)cc3)[nH]c(=O)c21` (stereo not shown), “relative translation efficiency” read 3.52 ± 0.73 (cap-dependent translation; rabbit reticulocyte lysate; relative to: m7GpppG-capped mRNA).
`O=C(O)c1ccc(/C=C2\SC(=S)N(c3cccc(C(F)(F)F)c3)C2=O)cc1` — result for “noncanonical NLRP3 activation”: “decreased” (mouse BMDM; concentration not given, with: cytosolic LPS).
`COc1ccc2c(c1)c1c(C)c3cnccc3c(C)c1n2CCCN1CCN(C)CC1` — result for “decrease in luciferase activity”: roughly 60% (WT-NHE luciferase construct; PDGFR-β promoter reporter; IC50 or 50% of IC50, 24 h).
For `Cc1csc(CCCNc2nc3c(c(=O)[nH]2)[n+](C)cn3C2OC(COP(=O)(O)OP(=O)([O-])OP(=O)(O)OCC3OC(n4cnc5c(=O)[nH]c(N)nc54)C(O)C3O)C(O)C2O)n1` (stereo not shown), “relative inhibitory potency” read 4.8 (cap-dependent translation, inhibitor; rabbit reticulocyte lysate; concentration not given; relative to: m7GpppG).
With `NS(=O)(=O)Nc1ncnc(OCCOc2ncc(Br)cn2)c1-c1ccc(Br)cc1` the Vmax was 543 ± 33 pmol/min/mg (metabolite formation; male Sprague-Dawley rat, liver microsomes; 150 mg/kg daily for 4 weeks).
`CO[C@@H]1[C@H](O)[C@@H](COP(=O)(O)OP(=O)([O-])OP(=O)(O)OP(=O)(O)OC[C@H]2O[C@@H](n3cnc4c(=O)[nH]c(N)nc43)[C@H](O)[C@@H]2O)O[C@H]1n1c[n+](C)c2c(O)nc(N)nc21`: “relative translation efficiency” 1.77 ± 0.18 (rabbit reticulocyte lysate; 1 h, luciferase mRNA capped with compound; relative to: m7GpppG-capped mRNA).
With `CC[C@H](C)[C@@H]1NC(=O)[C@H](Cc2cn(CCc3c(C)[nH]c4cc(Cl)cc(Cl)c34)nn2)NC(=O)[C@@H](CC(N)=O)NC(=O)[C@H](CCCNC(=N)N)NC(=O)[C@H](Cc2ccccc2)NC(=O)[C@@H](CC(C)C)NC(=O)[C@H](C)NC(=O)c2cc3cc(c2)C(=O)NC[C@@H](C(=O)N[C@@H](CCCCN)C(N)=O)NC(=O)[C@H](CCCNC(=N)N)NC(=O)[C@H](CCCNC(=N)N)NC(=O)[C@H](CCCNC(=N)N)NC(=O)[C@H](CCCNC(=N)N)NC(=O)[C@H](Cc2ccc4ccccc4c2)NC(=O)[C@H](Cc2ccccc2)NC(=O)[C@H](CCCCNC3=O)NC(=O)[C@H](CC(=O)O)NC1=O` the caspase-3 activity was 1.3 fold (H1299; immunostaining flow cytometry; 20 µM, 6 h; relative to: untreated).
Under “relative translation efficiency”, `C[n+]1cn(C2OC(COP(=O)([O-])OP(=O)(O)OP(=O)(O)OCC3OC(n4cnc5c(=O)[nH]c(N)nc54)C(O)C3O)C(O)C2O)c2nc(NCc3cc(-c4ccccc4)no3)[nH]c(=O)c21` (stereo not shown) is recorded as 3.51 ± 0.82 (cap-dependent translation; rabbit reticulocyte lysate; relative to: m7GpppG-capped mRNA).
`CO[C@@H]1[C@H](O)[C@@H](COP(=O)(O)OP(=O)([O-])C(F)(F)P(=O)(O)OP(=O)(O)OC[C@H]2O[C@@H](n3cnc4c(=O)[nH]c(N)nc43)[C@H](O)[C@@H]2O)O[C@H]1n1c[n+](C)c2c(O)nc(N)nc21`: “relative translation efficiency” 1.57 ± 0.1 (rabbit reticulocyte lysate; 1 h, luciferase mRNA capped with compound; relative to: m7GpppG-capped mRNA).
